Assay results collected from several papers.
Each numbered part is a random draw from the data of one study; scales do not carry over between parts.

Series 1 — technique: protein-binding microarray; form: double-stranded DNA, one strand shown; sample: in vitro; tested at: 250 nM; setting: 60-bp whole probe; together with: salmon DNA 0.4 mg/ml; relative to: random background probes; reading: higher = stronger binding; quantity: log fluorescence; shared flanks, not repeated: GCCTAGCAC … GTCTTGATTCGCTTGACGCTGCTG
Target: Interferon regulatory factor 7, full length, phosphomimetic (IRF7, Homo sapiens, UniProt Q92985, residues 1-503, S101K/S471D/S472D/S475D/S476D/S477D/S483D/S484D/S487D)
Chain of UniProt Q92985 (whole entry, unmodified, looked up): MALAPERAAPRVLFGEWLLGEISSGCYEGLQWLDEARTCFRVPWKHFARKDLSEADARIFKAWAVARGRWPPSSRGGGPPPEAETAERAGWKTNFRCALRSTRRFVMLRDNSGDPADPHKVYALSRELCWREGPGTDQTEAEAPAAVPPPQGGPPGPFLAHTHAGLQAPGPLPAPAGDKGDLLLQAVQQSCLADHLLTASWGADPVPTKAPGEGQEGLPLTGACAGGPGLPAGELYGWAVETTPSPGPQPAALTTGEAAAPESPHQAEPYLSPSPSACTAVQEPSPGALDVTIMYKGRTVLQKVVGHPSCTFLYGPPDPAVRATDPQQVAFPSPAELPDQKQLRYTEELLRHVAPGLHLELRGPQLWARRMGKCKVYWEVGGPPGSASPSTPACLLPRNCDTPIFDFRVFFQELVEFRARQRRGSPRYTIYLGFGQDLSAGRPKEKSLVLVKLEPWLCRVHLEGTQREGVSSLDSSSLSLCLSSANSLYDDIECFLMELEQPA
TCATATATACTATATGCAACTGTGCTA: 0.781 z-score
TTAGATTTCGGGTATCTATTAGTGCTA: 1.34 z-score
TCAGATATTAAACTGATACTGTGCTAG: 0.0139 z-score
TTTTTTCTACTTCTGTTTTTGTGCTAG: 4.26 z-score
GACGGACTGGACTTTCGAGACGTGCTA: -0.361 z-score
TCATCATTTTTTTTCATACTGTGCTAG: 0.93 z-score
CACTCTCTACATGTGTTTACGTGCTAG: 0.699 z-score

Series 2 — technique: aptamer microarray, sandwich; form: DNA with 2'F-ANA; sample: in vitro; tested at: 200 nM; together with: Cy3 exosite-II aptamer, 400 nM; reading: higher = stronger binding; quantity: mean fluorescence intensity; strand: GGTTGGTGTGGTTGG
Target: Prothrombin, mature alpha-thrombin (F2, Homo sapiens, UniProt P00734)
Setting: whole 15-mer aptamer, many near background
2'F-ANA at 1 2 5 8 9 11 12 13 14 15: 48.1 a.u.
2'F-ANA at 1 2 3 5 6 8 9 13 15: 71.5 a.u.
2'F-ANA at 1 2 4 5 7 10 14 15: 48.5 a.u.
2'F-ANA at 1 3 4 6 10 11 12 13 15: 63.5 a.u.
2'F-ANA at 2 5 7 8 10 13 15: 47.3 a.u.
2'F-ANA at 2 7 8 9 10 11 15: 174 a.u.

Series 3 — technique: protein-binding microarray; form: double-stranded DNA, one strand shown; sample: in vitro; tested at: 0.8 µM; setting: whole 60-bp probe, no competitor; reading: higher = stronger binding; quantity: fluorescence intensity; shared flanks, not repeated: … GTCTTGATTCGCTTGACGCTGCTG
Target: Centromere-binding protein 1, full length, N-terminal tag (CBF1, Saccharomyces cerevisiae, UniProt P17106, residues 1-351)
Chain of UniProt P17106 (whole entry, looked up): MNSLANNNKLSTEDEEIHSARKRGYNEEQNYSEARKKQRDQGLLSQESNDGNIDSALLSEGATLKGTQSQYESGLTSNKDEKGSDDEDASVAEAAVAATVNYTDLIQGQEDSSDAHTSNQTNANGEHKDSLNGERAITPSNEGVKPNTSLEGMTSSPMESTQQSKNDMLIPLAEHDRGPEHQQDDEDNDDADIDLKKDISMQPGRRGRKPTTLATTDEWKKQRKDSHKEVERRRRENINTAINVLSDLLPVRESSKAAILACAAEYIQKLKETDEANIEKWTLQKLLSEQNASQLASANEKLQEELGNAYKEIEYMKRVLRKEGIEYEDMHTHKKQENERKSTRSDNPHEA
GAAGTGAGAACTGATCACCAGAGCCGAAAAAACTAG: 547 a.u.
GAAGAAAAGGGACACCACGAATACAGTAGTATCTAG: 519 a.u.
CTAAGTCGCAGTCGTGGTGACTCTGGAGGGCGTTTC: 510 a.u.
GAAATCAAGTGATAACACGTTTAAATGAAACAGTAG: 619 a.u.
CTACTCCGCTTTATTCACGTGAAATGGGGTCGATTC: 3910 a.u.
CCTAACTACTATACACACGTCACATAGCTTCGTACA: 555 a.u.

Other studies, line by line
PhoQ, residues 284 288 289 292 302 303 GANMMA — fold induction (PhoP, residues 12 14 15 18 19 GQALL (Escherichia coli, UniProt P23836); Sort-seq, item: YFP reporter; E. coli; PhoQ-PhoP variant library, together with: 10 µM Mg2+; relative to: high Mg2+ state, higher = stronger signaling): 3.96

Repeated from above (series 1):
TCAGATATTAAACTGATACTGTGCTAG: 0.0139 z-score
TCATATATACTATATGCAACTGTGCTA: 0.781 z-score
